Results collected from several papers.
Each line is one published result; not all experiments were run side by side. Several values in a cell are separate wells, animals, samples, runs or records. Numbers after ± are the reported error.

Structure (SMILES) = CCCCCC1=C(NCC)C(=O)C(C/C=C(\C)CCC=C(C)C)=C(O)C1=O; test = RNA-Seq, measured: Ifitm3 mRNA; test system = mice, AAV9-A53T α-synuclein lesion, lesioned striatum; conditions = oral, dose not given; how to read = baseline: vehicle-treated lesioned mice; quantity = log2 fold change; value = 1.02
Structure (SMILES) = Cc1ccc(S(=O)(=O)N2CC2C(=O)N(C)C)cc1 (stereo not shown); test system = mouse, Lewis lung carcinoma; conditions = intraperitoneal, 170 mg/kg, 16 doses, day 16; quantity = tumour growth inhibition; value = 48%
Structure (SMILES) = Cc1cc(NC(=O)C(=O)N2C[C@@H](C)CC[C@@H]2c2ccc3scnc3c2)cnc1N; test system = mouse, U-87 MG MTAP-null orthotopic glioblastoma; conditions = 120 mg/kg twice daily; quantity = median survival extension; value = 53 days
Structure (SMILES) = O=S(=O)(N[C@H]1CCO[C@@H](C2c3ccc(F)cc3CCc3cc(F)ccc32)C1)c1ccc(OC(F)(F)F)cc1; test system = mouse, orthotopic D425 medulloblastoma; conditions = oral gavage, 75 mg/kg twice daily; quantity = median survival; value = 14.5 days
Structure (SMILES) = C[C@]12C(=O)[C@](C)(C(c3ccccc3)=C1c1ccccc1)C1(Br)C(=O)N(CCN)C(=O)C12 (stereo partly shown); test = HPLC, measured: CO-release by-product; test system = TRIS-sucrose buffer; conditions = pH 7.4, 4-5 °C; quantity = time to 50% conversion; value = 1160 min and 2080 min and 1430 min and 2280 min and 2260 min
Structure (SMILES) = COc1ccccc1-c1n[nH]c2nc(N[C@H]3CC[C@H](NS(=O)(=O)CC(C)C)CC3)ncc12; test = bead binding, competition bead pull-down, measured: LINJ.34.0080; test system = Leishmania donovani extract; conditions = 10 µM; how to read = baseline: vehicle; quantity = relative abundance; value = 0.98
Structure (SMILES) = CC(C)C[C@@H]1NC(=O)[C@@H](Cc2c[nH]c3ccccc23)NC(=O)[C@H](CCCNC(=N)N)NC(=O)[C@@H](CCC(=O)O)NC(=O)[C@H](CCC(N)=O)NC(=O)[C@@H](CCC(=O)O)NC(=O)[C@H](CCCNC(=N)N)NC(=O)[C@@H](Cc2c[nH]c3ccccc23)NC1=O; test = Luminex, measured: GM-CSF; test system = LDLr-/- mice, Western diet, liver; conditions = dose not given, 4 weeks; quantity = cytokine level; value = 86 ± 37 pg/g tissue
Structure (SMILES) = COc1ccccc1-c1n[nH]c2nc(NC3CCN(C(=O)Cc4ccc(F)cc4F)CC3)ncc12; test = bead binding, competition bead pull-down, measured: LINJ.28.2610; test system = Leishmania donovani extract; conditions = 10 µM; how to read = baseline: vehicle; quantity = relative abundance; value = 1.13
Structure (SMILES) = CCN(Cc1ccccc1)C(=O)CCc1nc(CN2CCN(C(=O)Cc3ccc(OC)c(OC)c3)CC2)no1; test = current clamp; test system = DRG neurons, naive rat; conditions = 3 µM; quantity = action potential threshold; value = -4.87 ± 1.65 mV
Structure (SMILES) = C#CC(C)(C)C(=O)SCCOP1(=O)OCC2OC(n3cnc4c(N)ncnc43)CC2OP(=O)(OCCSC(=O)C(C)(C)C#C)OCC2OC(n3cnc4c(N)ncnc43)CC2O1 (stereo not shown); test system = mouse CT26 tumour model; conditions = dose not given, 2160 h; quantity = tumour-free survivors resisting rechallenge; value = 100%
Structure (SMILES) = CN[C@@H]1C[C@H]2O[C@@](C)([C@@H]1OC)n1c3ccccc3c3c4c(c5c6ccccc6n2c5c31)C(=O)NC4; test = annexin V flow cytometry; test system = pancreatic islet cells, mouse; conditions = 1 µM, 24 h; quantity = live cells; value = 65.4%
Structure (SMILES) = CCCC[C@@H]1NC(=O)[C@H](Cc2ccc(O)cc2)NC(=O)[C@@H]2CCCN2C(=O)[C@H](CC(=O)O)NC(=O)[C@H](C)NC(=O)[C@H](Cc2ccccc2)NC(=O)[C@@H]2CSCCC(=O)N3CN(CN(C3)C(=O)CCSC[C@@H](C(=O)N[C@@H](C)C(N)=O)NC1=O)C(=O)CCSC[C@H](NC(C)=O)C(=O)N[C@@H](CC(C)(C)C)C(=O)N1CCC[C@H]1C(=O)N[C@@H](CCC(=O)O)C(=O)N[C@H](CCCCNC(=O)CCc1cn(CCOCCOCCOCCN(CCOCCOCCOCCC(=O)N[C@H]3CSCCC(=O)N4CN5CN(C4)C(=O)CCSC[C@H](NC(=O)[C@@H](CC(=O)O)NC(=O)[C@H](Cc4cccc6ccccc46)NC(=O)[C@@H]4CCCN4C3=O)C(=O)N[C@@H](CCSC)C(=O)N[C@@H](CCCCNC(=N)N)C(=O)N[C@@H](CC(=O)O)C(=O)N[C@@H](Cc3c[nH]c4ccccc34)C(=O)N[C@@H](CO)C(=O)N[C@@H]([C@@H](C)O)C(=O)N3CCC[C@H]3C(=O)N3C[C@H](O)C[C@H]3C(=O)N[C@@H](Cc3c[nH]c4ccccc34)C(=O)N[C@H](C(N)=O)CSCCC5=O)CCOCCOCCOCCn3cc(CCC(=O)NCCCC[C@H]4NC(=O)[C@H](CCC(=O)O)NC(=O)[C@@H]5CCCN5C(=O)[C@H](CC(C)(C)C)NC(=O)[C@@H](NC(C)=O)CSCCC(=O)N5CN6CN(C5)C(=O)CCSC[C@H](NC(=O)[C@H](Cc5ccc(O)cc5)NC(=O)[C@@H]5CCCN5C4=O)C(=O)N[C@@H](Cc4ccccc4)C(=O)N[C@@H](C)C(=O)N[C@@H](CC(=O)O)C(=O)N4CCC[C@H]4C(=O)N[C@@H](Cc4ccc(O)cc4)C(=O)N[C@@H](CCCC)C(=O)N[C@H](C(=O)N[C@@H](C)C(N)=O)CSCCC6=O)nn3)nn1)C(=O)N1CCC[C@H]1C(=O)N[C@@H](Cc1ccc(O)cc1)C(=O)N2; test = NanoString, measured: Cd164-mRNA; test system = mouse bearing MC38-Nectin-4 tumour, circulating white blood cells; conditions = 5 mg/kg, 24 h after dosing, unit not given; how to read = baseline: vehicle; quantity = mRNA level; value = 1.24
Structure (SMILES) = CCc1nnc(-c2c(OC)cc(-c3cnc4cc(-c5cnn(C)c5)ccn34)cc2OC)o1; test = histomorphometry; test system = male C57BL/6J mouse, tibia; conditions = oral gavage, 40 mg/kg once daily, 3 wk; quantity = osteoid surface/bone surface; value = 3.77 ± 0.937%
Structure (SMILES) = CSCC[C@H](NC(=O)[C@@H](NC(=O)[C@H](CCC(N)=O)NC(=O)[C@H](CO)NC(=O)[C@@H](N)C(C)C)[C@@H](C)O)C(=O)N[C@@H](CCCNC(=N)N)C(=O)N[C@@H](CCC(N)=O)C(=O)N[C@H](C(=O)N[C@@H](C)C(=O)N[C@H](C(=O)N1CCC[C@H]1C(=O)N[C@@H](CC(C)C)C(=O)N[C@@H](CC(C)C)C(=O)N[C@@H](Cc1c[nH]c2ccccc12)C(=O)N[C@@H](Cc1ccccc1)C(=O)N[C@@H](Cc1c[nH]c2ccccc12)C(=O)N[C@H](C(=O)NCC(=O)N[C@@H](CO)C(=O)N[C@@H](CC(C)C)C(=O)NCCOCCOCCOCCOCCOCCOCCOCCOCCOCCOCCOCCOCCC(=O)N[C@@H](CS)C(N)=O)[C@@H](C)O)C(C)C)[C@@H](C)O; test = phage binding; test system = panel of 11 cancer lines; conditions = selectivity at least 20; quantity = number of cell lines; value = 3
Structure (SMILES) = COC(=O)[C@H](CC(C)C)NC(=O)[C@@H]1CCCN1C(=O)[C@@H](NC(=O)[C@H](CCC(=O)C=[N+]=[N-])NC(=O)OCc1ccccc1)C(C)C; test system = isolated mouse mitochondria; conditions = concentration not given; quantity = Ca2+ retention capacity; value = no effect
Structure (SMILES) = Cc1n[nH]c(C)c1CCCOc1cc(C(=O)NCCCCC(NC(=O)CN2CCN(CC(=O)[O-])CCN(CC(=O)[O-])CCN(CC(=O)[O-])CC2)C(=O)NCC2CCC(C(=O)NC(Cc3ccc4ccccc4c3)C(=O)NCCCCC(NC(=O)NC(CCC(=O)O)C(=O)O)C(=O)O)CC2)ccc1F.[177Lu+3] (stereo not shown); test system = mice with 22Rv1 xenografts; conditions = 14.8 MBq, 21 days; how to read = baseline: control; quantity = tumour growth; value = inhibited
Structure (SMILES) = O=C(O)c1ccc(-c2nc(-c3ccccc3Cl)c3sccn23)cc1; test system = C57BL/6 mice; conditions = dose not given, days 10 and 11 pooled, basal hematopoiesis; quantity = platelet count change; value = 88.9% and 116% and 81.6% and 89.8% and 97% and 120% and 110%
Structure (SMILES) = CC(C)[C@H](NC(=O)[C@H](CCCNC(=N)N)NC(=O)[C@@H]1CCCN1C(=O)[C@@H](NC(=O)[C@H](C)NC(=O)[C@H](Cc1ccc(O)cc1)NC(=O)[C@H](CCC(N)=O)NC(=O)[C@H](CCCCN)NC(=O)[C@H](CCCNC(=N)N)NC(=O)[C@@H]1CCCN1C(=O)[C@H](CCC(=O)O)NC(=O)[C@@H](NC(=O)[C@H](C)N)[C@@H](C)O)[C@@H](C)O)C(=O)N[C@@H](Cc1ccccc1)C(=O)N[C@@H](Cc1c[nH]c2ccccc12)C(=O)N[C@H](C(=O)N[C@@H](CC(=O)O)C(=O)N[C@@H](C)C(=O)N1CCC[C@H]1C(=O)NCC(=O)NCCOCCOCCOCCOCCOCCOCCOCCOCCOCCOCCOCCOCCC(=O)N[C@@H](CS)C(N)=O)[C@@H](C)O; test = phage binding; test system = panel of 11 cancer lines; conditions = selectivity at least 20; quantity = number of cell lines; value = 3
Structure (SMILES) = Cc1ccc(C2=CC(C)(C)Oc3ccc(-c4ccc(-c5ccc(C(=O)O)cc5)[nH]4)cc32)cc1; test = histology; test system = CD1 mouse male, testis; conditions = 10 mg/kg/day for 4 weeks, 1 day after end of dosing; quantity = spermatids failing translocation; value = 15.9%
Structure (SMILES) = O=c1n(CCNCCOS(=O)(=O)c2ccccc2)c(=O)n(S(=O)(=O)c2ccccc2)c(=O)n1S(=O)(=O)c1ccccc1; test = DPPH scavenging; conditions = 62.5 µg/mL; quantity = inhibition; value = 46.7%
Structure (SMILES) = CC(=O)NCSC[C@H](NC(=O)[C@@H]1CCCN1C(=O)[C@H](C)NC(=O)[C@@H](NC(=O)CNC(=O)[C@@H](NC(=O)[C@H](Cc1c[nH]c2ccccc12)NC(=O)[C@H](C)NC(=O)CNC(=O)[C@H](CO)NC(=O)[C@H](C)NC(=O)[C@@H]1CCCN1C(=O)[C@H](Cc1c[nH]c2ccccc12)NC(=O)[C@H](C)NC(=O)[C@H](C)NC(=O)[C@@H](N)Cc1ccc(O)cc1)[C@@H](C)O)[C@@H](C)O)C(=O)N[C@@H](CO)C(=O)N[C@@H](C)C(=O)NCC(=O)N[C@H](C(=O)NCCOCCOCCOCCOCCOCCOCCOCCOCCOCCOCCOCCOCCC(=O)N[C@@H](CS)C(N)=O)[C@@H](C)O; test = phage binding; test system = panel of 11 cancer lines; conditions = selectivity at least 20; quantity = number of cell lines; value = 3
Structure (SMILES) = O=C(NCc1cc(F)cc(F)c1)[C@@]1(O)CCN(c2ccc3[nH]ccc3c2)C1=O; test system = sample E PDX mouse; conditions = dose not given, RTV endpoint 500%; quantity = median survival time; value = > 80 days

Excerpt of the above:
Structure (SMILES) = CC(=O)NCSC[C@H](NC(=O)[C@@H]1CCCN1C(=O)[C@H](C)NC(=O)[C@@H](NC(=O)CNC(=O)[C@@H](NC(=O)[C@H](Cc1c[nH]c2ccccc12)NC(=O)[C@H](C)NC(=O)CNC(=O)[C@H](CO)NC(=O)[C@H](C)NC(=O)[C@@H]1CCCN1C(=O)[C@H](Cc1c[nH]c2ccccc12)NC(=O)[C@H](C)NC(=O)[C@H](C)NC(=O)[C@@H](N)Cc1ccc(O)cc1)[C@@H](C)O)[C@@H](C)O)C(=O)N[C@@H](CO)C(=O)N[C@@H](C)C(=O)NCC(=O)N[C@H](C(=O)NCCOCCOCCOCCOCCOCCOCCOCCOCCOCCOCCOCCOCCC(=O)N[C@@H](CS)C(N)=O)[C@@H](C)O; test = phage binding; test system = panel of 11 cancer lines; conditions = selectivity at least 20; quantity = number of cell lines; value = 3
